Results from different studies.
Parts stem from different laboratories: compare values within a part only. “And” joins repeats or separate records; there may be more than shown.
Sequence of UniProt P08581 (whole entry, looked up): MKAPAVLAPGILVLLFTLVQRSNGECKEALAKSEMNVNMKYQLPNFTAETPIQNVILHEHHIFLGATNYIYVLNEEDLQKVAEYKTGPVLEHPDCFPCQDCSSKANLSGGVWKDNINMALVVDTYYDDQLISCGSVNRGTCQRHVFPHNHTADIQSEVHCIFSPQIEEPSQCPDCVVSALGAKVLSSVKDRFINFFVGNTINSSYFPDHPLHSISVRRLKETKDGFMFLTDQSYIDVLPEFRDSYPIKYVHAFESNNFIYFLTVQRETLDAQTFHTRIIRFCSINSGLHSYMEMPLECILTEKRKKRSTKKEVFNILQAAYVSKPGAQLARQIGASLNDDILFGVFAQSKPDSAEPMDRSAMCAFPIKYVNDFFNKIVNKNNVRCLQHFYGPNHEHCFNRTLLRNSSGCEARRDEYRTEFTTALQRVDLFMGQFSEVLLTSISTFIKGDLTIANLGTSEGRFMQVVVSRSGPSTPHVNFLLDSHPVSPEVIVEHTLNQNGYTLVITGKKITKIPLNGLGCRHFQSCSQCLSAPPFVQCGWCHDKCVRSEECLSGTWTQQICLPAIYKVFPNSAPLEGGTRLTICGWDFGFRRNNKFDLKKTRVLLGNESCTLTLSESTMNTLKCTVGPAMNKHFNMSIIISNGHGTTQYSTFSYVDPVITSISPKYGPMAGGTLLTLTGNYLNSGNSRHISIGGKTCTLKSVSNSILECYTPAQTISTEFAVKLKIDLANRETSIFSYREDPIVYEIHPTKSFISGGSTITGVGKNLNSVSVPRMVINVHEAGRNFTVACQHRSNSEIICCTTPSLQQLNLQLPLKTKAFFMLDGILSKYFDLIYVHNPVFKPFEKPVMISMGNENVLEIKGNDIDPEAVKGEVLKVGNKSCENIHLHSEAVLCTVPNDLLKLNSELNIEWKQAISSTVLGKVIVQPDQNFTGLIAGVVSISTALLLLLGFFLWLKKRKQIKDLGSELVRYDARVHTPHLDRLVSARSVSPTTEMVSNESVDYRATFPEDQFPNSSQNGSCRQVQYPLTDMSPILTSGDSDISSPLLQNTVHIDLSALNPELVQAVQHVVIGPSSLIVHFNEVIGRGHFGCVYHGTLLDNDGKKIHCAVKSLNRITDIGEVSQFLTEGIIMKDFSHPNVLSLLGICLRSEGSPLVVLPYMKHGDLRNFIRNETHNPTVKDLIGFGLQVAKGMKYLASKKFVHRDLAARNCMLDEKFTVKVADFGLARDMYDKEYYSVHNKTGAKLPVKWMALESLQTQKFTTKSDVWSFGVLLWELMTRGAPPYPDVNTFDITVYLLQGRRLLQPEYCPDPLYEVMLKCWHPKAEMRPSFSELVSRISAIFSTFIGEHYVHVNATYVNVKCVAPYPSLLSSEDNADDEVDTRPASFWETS
Sequence of UniProt P27037 (whole entry, looked up): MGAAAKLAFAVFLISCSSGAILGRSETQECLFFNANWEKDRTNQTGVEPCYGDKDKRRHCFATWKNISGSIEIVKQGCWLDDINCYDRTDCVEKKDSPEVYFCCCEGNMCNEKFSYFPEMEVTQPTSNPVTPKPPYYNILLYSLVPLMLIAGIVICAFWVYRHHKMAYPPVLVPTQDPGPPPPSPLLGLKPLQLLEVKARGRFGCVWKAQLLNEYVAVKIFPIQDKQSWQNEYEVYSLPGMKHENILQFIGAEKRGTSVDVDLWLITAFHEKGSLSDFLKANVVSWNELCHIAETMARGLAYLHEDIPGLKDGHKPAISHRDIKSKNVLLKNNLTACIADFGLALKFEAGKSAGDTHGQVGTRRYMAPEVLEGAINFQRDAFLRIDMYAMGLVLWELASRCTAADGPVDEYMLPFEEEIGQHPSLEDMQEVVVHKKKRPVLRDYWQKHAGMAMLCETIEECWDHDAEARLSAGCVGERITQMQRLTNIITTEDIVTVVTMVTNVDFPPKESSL
Sequence of UniProt O96017 (whole entry, looked up): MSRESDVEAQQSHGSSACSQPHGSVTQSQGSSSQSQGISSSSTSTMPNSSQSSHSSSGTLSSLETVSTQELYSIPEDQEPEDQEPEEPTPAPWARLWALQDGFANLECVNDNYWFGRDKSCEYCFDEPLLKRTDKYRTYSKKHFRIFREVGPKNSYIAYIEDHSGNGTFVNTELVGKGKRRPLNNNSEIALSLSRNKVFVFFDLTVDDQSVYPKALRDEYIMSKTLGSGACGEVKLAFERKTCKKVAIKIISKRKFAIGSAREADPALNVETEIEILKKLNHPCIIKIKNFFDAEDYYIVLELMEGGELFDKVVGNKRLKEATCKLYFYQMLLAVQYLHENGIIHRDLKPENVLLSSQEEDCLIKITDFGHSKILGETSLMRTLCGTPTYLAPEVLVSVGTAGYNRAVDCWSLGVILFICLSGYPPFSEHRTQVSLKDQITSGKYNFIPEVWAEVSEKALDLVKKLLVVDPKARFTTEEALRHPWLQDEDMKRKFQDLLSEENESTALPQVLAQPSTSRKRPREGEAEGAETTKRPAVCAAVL
Sequence of UniProt P29320 (whole entry, looked up): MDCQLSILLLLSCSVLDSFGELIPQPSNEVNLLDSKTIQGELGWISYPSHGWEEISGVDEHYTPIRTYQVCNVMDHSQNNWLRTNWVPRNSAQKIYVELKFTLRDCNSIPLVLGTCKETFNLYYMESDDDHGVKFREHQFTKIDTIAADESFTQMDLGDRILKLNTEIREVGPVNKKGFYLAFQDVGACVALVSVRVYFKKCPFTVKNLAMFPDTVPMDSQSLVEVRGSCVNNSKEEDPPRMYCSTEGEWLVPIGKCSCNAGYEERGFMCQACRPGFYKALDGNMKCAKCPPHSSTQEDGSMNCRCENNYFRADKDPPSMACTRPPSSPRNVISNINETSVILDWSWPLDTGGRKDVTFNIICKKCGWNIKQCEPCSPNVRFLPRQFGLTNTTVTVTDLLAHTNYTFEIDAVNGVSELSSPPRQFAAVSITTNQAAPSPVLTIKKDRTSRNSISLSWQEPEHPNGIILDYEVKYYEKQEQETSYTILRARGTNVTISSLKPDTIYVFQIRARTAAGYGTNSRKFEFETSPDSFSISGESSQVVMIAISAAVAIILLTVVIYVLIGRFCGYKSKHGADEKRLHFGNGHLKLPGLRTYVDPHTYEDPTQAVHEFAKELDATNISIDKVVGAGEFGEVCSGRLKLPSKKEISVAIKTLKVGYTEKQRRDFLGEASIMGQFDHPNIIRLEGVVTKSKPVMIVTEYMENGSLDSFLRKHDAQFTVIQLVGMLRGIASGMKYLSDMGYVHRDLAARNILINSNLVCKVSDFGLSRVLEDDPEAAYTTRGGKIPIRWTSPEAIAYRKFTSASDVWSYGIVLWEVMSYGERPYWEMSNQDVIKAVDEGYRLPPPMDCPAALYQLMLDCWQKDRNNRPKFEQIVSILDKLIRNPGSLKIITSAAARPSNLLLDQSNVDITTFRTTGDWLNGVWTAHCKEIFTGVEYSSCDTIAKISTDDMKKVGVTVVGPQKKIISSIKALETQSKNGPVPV
Sequence of UniProt Q00535 (whole entry, looked up): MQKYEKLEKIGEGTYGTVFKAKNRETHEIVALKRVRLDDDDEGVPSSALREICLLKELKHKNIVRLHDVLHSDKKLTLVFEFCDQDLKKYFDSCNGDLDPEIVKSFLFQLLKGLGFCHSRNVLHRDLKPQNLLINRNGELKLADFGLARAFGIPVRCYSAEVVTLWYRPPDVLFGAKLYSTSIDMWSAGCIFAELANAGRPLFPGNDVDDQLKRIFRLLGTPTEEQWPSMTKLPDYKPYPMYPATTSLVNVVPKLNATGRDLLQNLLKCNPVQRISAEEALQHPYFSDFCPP
Sequence of UniProt Q9NYL2 (whole entry, looked up): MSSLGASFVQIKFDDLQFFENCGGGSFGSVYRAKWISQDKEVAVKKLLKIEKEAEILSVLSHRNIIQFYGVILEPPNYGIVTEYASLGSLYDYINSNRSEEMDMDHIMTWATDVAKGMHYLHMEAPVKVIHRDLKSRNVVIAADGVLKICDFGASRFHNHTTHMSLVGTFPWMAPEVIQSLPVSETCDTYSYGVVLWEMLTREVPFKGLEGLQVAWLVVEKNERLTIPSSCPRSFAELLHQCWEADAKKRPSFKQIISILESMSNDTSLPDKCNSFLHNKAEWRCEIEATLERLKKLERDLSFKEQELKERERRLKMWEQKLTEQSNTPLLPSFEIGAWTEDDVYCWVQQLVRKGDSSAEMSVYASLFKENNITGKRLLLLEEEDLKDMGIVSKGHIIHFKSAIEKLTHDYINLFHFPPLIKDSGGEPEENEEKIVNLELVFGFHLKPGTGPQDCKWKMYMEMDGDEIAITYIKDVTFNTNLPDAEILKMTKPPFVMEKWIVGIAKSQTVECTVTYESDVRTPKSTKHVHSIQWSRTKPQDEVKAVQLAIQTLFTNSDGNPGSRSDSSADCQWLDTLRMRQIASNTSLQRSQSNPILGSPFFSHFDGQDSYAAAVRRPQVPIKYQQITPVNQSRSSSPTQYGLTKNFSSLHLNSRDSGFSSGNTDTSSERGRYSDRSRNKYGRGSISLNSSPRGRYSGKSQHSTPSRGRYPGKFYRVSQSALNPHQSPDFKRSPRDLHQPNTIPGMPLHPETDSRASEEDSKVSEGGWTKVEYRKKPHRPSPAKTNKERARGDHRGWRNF
Sequence of UniProt Q9BYT3 (whole entry, looked up): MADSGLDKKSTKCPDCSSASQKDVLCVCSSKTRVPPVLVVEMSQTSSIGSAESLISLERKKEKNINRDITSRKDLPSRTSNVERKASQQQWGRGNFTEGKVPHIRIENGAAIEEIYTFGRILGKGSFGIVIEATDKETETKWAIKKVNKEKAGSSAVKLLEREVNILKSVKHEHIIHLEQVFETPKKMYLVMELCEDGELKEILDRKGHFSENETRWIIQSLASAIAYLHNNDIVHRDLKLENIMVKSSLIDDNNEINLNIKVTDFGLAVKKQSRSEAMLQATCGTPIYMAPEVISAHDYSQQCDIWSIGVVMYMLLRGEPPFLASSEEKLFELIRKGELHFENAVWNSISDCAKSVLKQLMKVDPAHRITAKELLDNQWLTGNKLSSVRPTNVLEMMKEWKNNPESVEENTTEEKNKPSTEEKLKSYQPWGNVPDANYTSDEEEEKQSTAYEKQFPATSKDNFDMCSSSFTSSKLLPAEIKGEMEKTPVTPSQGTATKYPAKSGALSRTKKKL

Study 1
Compound: Cc1ncsc1-c1ccc(C(CO)NC(=O)C2CC(O)CN2C(=O)C(C(C)C)n2cc(-c3ccc(COc4c(-c5c(C)c(F)cc6[nH]ncc56)c(C5CC5)cc5c(N6CC7CC6CN7)nc(OC6CCOCC6)nc45)cc3)nn2)cc1 (stereo not drawn)
| system | setting | body weight |
| --- | --- | --- |
| mouse, HT-29 xenograft | sc, 30 mg/kg once daily, day 1 | 17.7 g and 18 g and 20.5 g and 19.9 g and 18.3 g |
| mouse, lung LXFA sample A PDX | 30 mg/kg twice weekly, day 19 | 29.8 g and 28.6 g |
| mouse, PK-59 xenograft | 0.3 mg/kg, day 7 | 25.1 g and 26.1 g |
| mouse, PK-59 xenograft | 10 mg/kg, day 14 | 25.6 g and 24.4 g |
| mouse, PK-59 xenograft | 10 mg/kg, day 7 | 24.7 g and 24.8 g and 26 g and 28.2 g |
| mouse, lung LXFA sample A PDX | 10 mg/kg twice weekly, day 13 | 29.9 g and 26.5 g and 28.6 g |
| mouse, PK-59 xenograft | 10 mg/kg, day 10 | 28.3 g and 25.4 g and 24.2 g |

Study 2 — tested at: 1 µM
Structure (SMILES): CC[C@@]1(c2cccc(-c3c(F)cncc3OC)c2)C2=C(Nc3n[nH]cc31)[C@H](F)C(C)(C)CC2=O (single isomer, unassigned)
| target | test | scale | remaining binding |
| --- | --- | --- | --- |
| PLK3 (Homo sapiens, UniProt Q9H4B4) | kinase binding, KINOMEscan | relative to: DMSO control | 60% |
| MAP3K20 (Homo sapiens, UniProt Q9NYL2) | kinase binding, KINOMEscan | relative to: DMSO control | 100% |
| CSNK2A1 (Homo sapiens, UniProt P68400) | kinase binding, KINOMEscan | relative to: DMSO control | 100% |
| LTK (Homo sapiens, UniProt P29376) | binding, competition with immobilised ligand | – | 70% |
| EPHA3 (Homo sapiens, UniProt P29320) | binding, competition with immobilised ligand | – | 70% |
| MET (Homo sapiens, UniProt P08581) | binding, competition with immobilised ligand | – | 93% |
| STK36 (Homo sapiens, UniProt Q9NRP7) | binding, competition with immobilised ligand | – | 100% |
| CDK5 (Homo sapiens, UniProt Q00535) | kinase binding, KINOMEscan | relative to: DMSO control | 70% |
| ACVR2A (Homo sapiens, UniProt P27037) | binding, competition with immobilised ligand | – | 45% |
| TLK2 (Homo sapiens, UniProt Q86UE8) | binding, competition with immobilised ligand | – | 95% |
| CHEK2 (Homo sapiens, UniProt O96017) | kinase binding, KINOMEscan | relative to: DMSO control | 88% |
| STK33 (Homo sapiens, UniProt Q9BYT3) | binding, competition with immobilised ligand | – | 100% |

Study 3 — cell line: HCC1569; method: in-cell western; measured: CDK1 phospho-Thr14
Compound: Cc1ccc(O)c(C)c1-c1cnc2[nH]c(-c3cnc(N4CCC(CCN5CCN(c6cc7c(cc6F)c(N6CCC(=O)NC6=O)nn7C)CC5)CC4)nc3)cc2c1C#N
| setting | pCDK1 (Thr14) level |
| --- | --- |
| 37.04 nM | 57.1 RLU and 43.4 RLU |
| 1000 nM | 149 RLU and 138 RLU |
| 12.35 nM | 60.1 RLU and 42.8 RLU |

Single results of other studies
| Compound | test | system | setting | measurement | result |
| --- | --- | --- | --- | --- | --- |
| Cc1nc(C)c(C=[N+]([O-])C(C)(C)C)nc1C | stereological counting | MPTP mouse model, substantia nigra | 90 mg/kg | TH-positive neuron count | 7440 and 7260 and 8740 and 8090 |
| COc1cc(C(=O)OCCCN2CCCN(CCCOC(=O)c3cc(OC)c(OC)c(OCc4ccc([N+](=O)[O-])cc4)c3)CC2)cc(OC)c1OC | – | male mouse, formalin pain | intrathecal, 1 nmol, 0-10 min | licking and flinching duration | 195 s and 281 s and 170 s and 206 s |

Repeated from above (study 1):
| system | setting | body weight |
| --- | --- | --- |
| mouse, HT-29 xenograft | sc, 30 mg/kg once daily, day 1 | 17.7 g and 18 g and 20.5 g and 19.9 g and 18.3 g |
| mouse, lung LXFA sample A PDX | 30 mg/kg twice weekly, day 19 | 29.8 g and 28.6 g |
